Published values of several laboratories.
Lines come from different studies, so protocols differ. ± gives the spread as reported.

CCOC(=O)Nc1ccc2c(c1)CN1C(=S)N(c3ccc(C#N)c(C(F)(F)F)c3)C(=O)C1C2 (stereo not drawn)
half-life (intravenous, 5 mg/kg): 14.1 ± 3.53 h

O=c1[nH]c2ccccc2c(=O)o1
half-life (reactivity with N-α-acetyl-lysine, HPLC-MS; pH 10.2): < 0.0167 h

CSCC[C@H](NC(=O)[C@H](Cc1ccccc1)NC(=O)CNC(=O)[C@@H](C)NC(=O)[C@@H](N)Cc1ccc(O)cc1)C(=O)N1CCC[C@H]1C(=O)N[C@@H](CC(C)C)C(=O)N[C@@H](Cc1c[nH]c2ccccc12)C(=O)NCc1cc(C(F)(F)F)cc(C(F)(F)F)c1
half-life (rat plasma; 50 µg/mL, 37 °C): 4.8 h

CSCC[C@H](NC(=O)[C@H](CO)NC(=O)[C@H](CCC(N)=O)NC(=O)[C@H](CCC(=O)O)NC(=O)[C@H](CCC(=O)O)NC(=O)CNC(=O)[C@H](CSSC[C@H](NC(=O)[C@H](CCCNC(=N)N)NC(=O)[C@@H]1CCCN1C(=O)[C@H](Cc1c[nH]cn1)NC(=O)[C@H](Cc1c[nH]c2ccccc12)NC(=O)[C@H](CCCCN)NC(=O)[C@H](Cc1ccccc1)NC(=O)[C@H](CC(C)C)NC(=O)CN)C(=O)NCC(=O)N[C@@H](CCC(=O)O)C(=O)N[C@@H](CCC(=O)O)C(=O)N[C@@H](CCC(N)=O)C(=O)N[C@@H](CO)C(=O)N[C@@H](CCSC)C(=O)N[C@@H](Cc1c[nH]c2ccccc12)C(=O)N[C@H](C(=O)O)[C@@H](C)O)NC(=O)[C@H](CCCNC(=N)N)NC(=O)[C@@H]1CCCN1C(=O)[C@H](Cc1c[nH]cn1)NC(=O)[C@H](Cc1c[nH]c2ccccc12)NC(=O)[C@H](CCCCN)NC(=O)[C@H](Cc1ccccc1)NC(=O)[C@H](CC(C)C)NC(=O)CN)C(=O)N[C@@H](Cc1c[nH]c2ccccc12)C(=O)N[C@H](C(=O)O)[C@@H](C)O
half-life (HPLC; plasma; 37 °C): 1.86 h

CC[C@H](C)[C@H](NC(=O)[C@H](CCCN)NC(=O)[C@H](CCCNC(=N)N)NC(=O)[C@@H]1CCCN1C(=O)[C@@H]1CCCN1C(=O)[C@H](CCCNC(=N)N)NC(=O)[C@@H]1CCCN1C(=O)[C@H](CCCNC(=N)N)NC(=O)[C@@H]1CCCN1C(=O)[C@H](CC(C)C)NC(=O)[C@H](Cc1ccc(O)cc1)NC(=O)[C@@H]1CCCN1C(=O)[C@@H]1CCCN1C(=O)[C@H](CCCCN)NC(=O)[C@H](CC(=O)O)NC(=O)[C@@H](N)C(C)C)C(=O)N[C@@H](Cc1ccc(O)cc1)C(=O)N[C@@H](CC(N)=O)C(=O)N[C@@H](CCCN)C(N)=O
half-life (Escherichia coli BW25113 lysate; 31.5 µM): ~1.33 h

CC[C@H](C)[C@@H]1NC(=O)[C@H](CO)NC(=O)C(C)(CCCCN)NC(=O)[C@@H]2CSSC[C@@H](C(=O)N[C@@H](Cc3ccc(O)cc3)C(N)=O)NC(=O)[C@H](CCCCN)NC(=O)[C@@H]3CSSC[C@H](NC(=O)[C@H](CCCNC(=N)N)NC(=O)C(C)(CC(C)C)NC(=O)[C@H](CC(=O)O)NC(=O)[C@H](CC(=O)O)NC(=O)[C@H](CCC(=O)O)NC(=O)[C@H](CC(N)=O)NC(=O)[C@H](Cc4c[nH]c5ccccc45)NC(=O)[C@@H]4CCCN4C(=O)CNC(=O)[C@H](CC(N)=O)NC(=O)[C@@H](NC(=O)CNC(=O)[C@H](Cc4ccccc4)NC(=O)CN)CSSC[C@H](NC(=O)[C@H](Cc4ccc(O)cc4)NC(=O)CNC(=O)CNC(=O)[C@H](CCCCN)NC(=O)[C@H](Cc4ccc(O)cc4)NC(=O)CNC(=O)[C@H](CCCCN)NC1=O)C(=O)N[C@@H](C)C(=O)N[C@@H](CCCCN)C(=O)NCC(=O)NCC(=O)N[C@@H](Cc1ccccc1)C(=O)N[C@@H](C(C)C)C(=O)N3)C(=O)N[C@@H](Cc1c[nH]cn1)C(=O)NC(C)(C)C(=O)N[C@@H](Cc1c[nH]cn1)C(=O)N2 (stereo partly drawn)
half-life (HPLC; trypsin digestion; 13.2 µM, pH 8.5, room temperature, with: trypsin 0.9 µM): 0.6 h

CC[C@H](C)[C@H](NC(=O)[C@@H](Cc1ccccc1)NC)C(=O)N[C@@H](CO)C(=O)N[C@H](CCCNC(=N)N)C(=O)N[C@@H](C(=O)N[C@H](C(=O)OC[C@H](N)C(=O)N[C@H]1C(=O)N[C@@H](C)C(=O)N[C@@H](C2CCCCC2)C(=O)N[C@@H]([C@@H](C)CC)C(=O)O[C@H]1C)[C@@H](C)CC)[C@@H](C)CC
half-life (conversion to teixobactin; phosphate buffer; pH 7.4, room temperature): 0.733 h

CCCC/C=C/C(=O)N[C@@H](Cc1cc(F)cc(F)c1)C(=O)N[C@H]1COC(=O)[C@@H]2CCCN2C(=O)[C@H](C)NC(=O)[C@@H]2C[C@@H](C(C)C)CCN2C(=O)[C@@H]2CCCN2C1=O
half-life (H-D exchange, 1H NMR, item: alanine amide hydrogen; CD3OD; 25 °C): 3.18 h

O=C(O)c1ccc(-c2nc(-c3ccccc3Cl)c3sccn23)cc1
half-life (mouse liver microsomes; 1 µM): 0.503 h

C[C@@H](NC(=O)[C@@H](N)Cc1ccc(O)cc1)C(=O)NCC(=O)N[C@@H](Cc1ccc(F)cc1)C(=O)N1CCN(C(=O)[C@H](Cc2ccc(F)cc2)NC(=O)CNC(=O)[C@@H](C)NC(=O)[C@@H](N)Cc2ccc(O)cc2)CC1
half-life (LC-MS; human plasma; 5 µM, 37 °C): > 1 h

CC[C@H](C)[C@@H]1NC(=O)[C@H](CO)NC(=O)[C@H](CCCCN)NC(=O)[C@@H]2CSSC[C@@H](C(=O)N[C@@H](Cc3ccc(O)cc3)C(N)=O)NC(=O)[C@H](CCCCN)NC(=O)[C@@H]3CSSC[C@H](NC(=O)[C@H](CCCNC(=N)N)NC(=O)[C@H](CC(C)C)NC(=O)[C@H](CC(=O)O)NC(=O)[C@H](CC(=O)O)NC(=O)[C@H](CCC(=O)O)NC(=O)[C@H](CC(N)=O)NC(=O)[C@H](Cc4c[nH]c5ccccc45)NC(=O)[C@@H]4CCCN4C(=O)CNC(=O)[C@H](CC(N)=O)NC(=O)[C@@H](NC(=O)CNC(=O)[C@H](Cc4ccccc4)NC(=O)CN)CSSC[C@H](NC(=O)[C@H](Cc4ccc(O)cc4)NC(=O)CNC(=O)CNC(=O)[C@H](CCCCN)NC(=O)[C@H](Cc4ccc(O)cc4)NC(=O)CNC(=O)[C@H](CCCCN)NC1=O)C(=O)N[C@@H](C)C(=O)N[C@@H](CCCCN)C(=O)NCC(=O)NCC(=O)N[C@@H](Cc1ccccc1)C(=O)N[C@@H](C(C)C)C(=O)N3)C(=O)N[C@@H](Cc1c[nH]cn1)C(=O)N[C@@H](CC(N)=O)C(=O)N[C@@H](Cc1c[nH]cn1)C(=O)N2
half-life (pronase; 13.2 µM, pH 7.2, room temperature): 1.9 h

O=C(NCc1ccc(Cl)cn1)C(=O)C(Cc1ccccc1)NC(=O)C1CC(F)CN1C(=O)C(NC(=O)C1CCC(F)(F)CC1)C1CCCCC1 (stereo not drawn)
half-life (pH 7.4): > 9 h

N#Cc1ccccn1
half-life (pH 7.4): 833 h

C=C1NC(=O)c2csc(n2)[C@H]([C@@H](C)O)NC(=O)[C@H](C)NC(=O)[C@H]([C@@H](C)CC)NC(=O)[C@H](CCCNC(=N)N)NC(=O)CNC(=O)[C@H](CCCNC(=N)N)NC(=O)[C@H]([C@@H](C)O)NC(=O)[C@H](CCCNC(=N)N)NC(=O)[C@H]([C@@H](C)CC)NC(=O)[C@H]([C@@H](C)O)NC(=O)[C@H](Cc2c[nH]c3ccccc23)NC(=O)c2ccc(-c3nc(C(=O)OC)cs3)nc2-c2csc1n2
half-life (LC-MS; human serum; pH 7.6, 37 °C): 1.8 ± 0.1 h

CC[C@H](C)[C@@H]1NC(=O)[C@H](CO)NC(=O)CC(CCCCN)NC(=O)[C@@H]2CSSC[C@@H](C(=O)N[C@@H](Cc3ccc(O)cc3)C(N)=O)NC(=O)[C@H](CCCCN)NC(=O)[C@@H]3CSSC[C@H](NC(=O)[C@H](CCCNC(=N)N)NC(=O)CC(CC(C)C)NC(=O)[C@H](CC(=O)O)NC(=O)[C@H](CC(=O)O)NC(=O)[C@H](CCC(=O)O)NC(=O)[C@H](CC(N)=O)NC(=O)[C@H](Cc4c[nH]c5ccccc45)NC(=O)[C@@H]4CCCN4C(=O)CNC(=O)[C@H](CC(N)=O)NC(=O)[C@@H](NC(=O)CNC(=O)[C@H](Cc4ccccc4)NC(=O)CN)CSSC[C@H](NC(=O)[C@H](Cc4ccc(O)cc4)NC(=O)CNC(=O)CNC(=O)[C@H](CCCCN)NC(=O)[C@H](Cc4ccc(O)cc4)NC(=O)CNC(=O)[C@H](CCCCN)NC1=O)C(=O)N[C@@H](C)C(=O)N[C@@H](CCCCN)C(=O)NCC(=O)NCC(=O)N[C@@H](Cc1ccccc1)C(=O)N[C@@H](C(C)C)C(=O)N3)C(=O)N[C@@H](Cc1c[nH]cn1)C(=O)NC(CC(N)=O)CC(=O)N[C@@H](Cc1c[nH]cn1)C(=O)N2 (stereo partly drawn)
half-life (HPLC; trypsin digestion; 13.2 µM, pH 8.5, room temperature, with: trypsin 0.9 µM): 0.09 h

CC[C@H](C)[C@@H]1NC(=O)[C@H](Cc2ccc(O)cc2)NC(=O)[C@@H](N)CSCSC[C@@H](C(=O)N2CCC[C@H]2C(=O)N[C@@H](CC(C)C)C(=O)NCC(N)=O)NC(=O)[C@H](CC(N)=O)NC(=O)[C@H](CCC(N)=O)NC1=O
half-life (phosphate buffer; 0.1 mg/mL, pH 4.5, 55 °C): 778 h

CC(C)C(=O)OC[C@H]1O[C@@](C#N)(n2ccc(N)nc2=O)[C@H](O)[C@@H]1O
half-life (hamster plasma; conversion to CNC metabolite): < 0.0833 h

C=C1NC(=O)CNC(=O)[C@H](CCCNC(=N)N)NC(=O)[C@H](Cc2ccc(O)cc2)NC(=O)[C@H](CC(C)C)NC(=O)[C@H](CO)NC(=O)[C@H](CCCCN)NC(=O)[C@H](CC(N)=O)NC(=O)CNC(=O)[C@H](Cc2ccccc2)NC(=O)[C@H](Cc2c[nH]c3ccccc23)NC(=O)[C@H](Cc2c[nH]c3ccccc23)NC(=O)c2ccc(-c3nc(C(=O)OC)cs3)nc2-c2csc1n2
half-life (LC-MS; human serum; pH 7.6, 37 °C): 0.61 ± 0.02 h
